# Measurements collected from several papers.
# Organism: Escherichia coli
SMILES,assay,test system,conditions,MIC
C/C(=C\c1ccc(O)cc1)C(=O)Nc1ccc(C(=O)N[C@@H](Cc2c[nH]nn2)C(=O)Nc2ccc(C(=O)Nc3ccc(C(=O)Nc4ccc(C(=O)O)c(O)c4)c(O)c3)cc2)cc1,broth microdilution,DSM 1116,,0.125 µg/mL
CC[C@H]1OC(=O)[C@H](C)[C@@H](OC(=O)Cc2ccccc2Cl)[C@H](C)[C@@H](O[C@@H]2O[C@H](C)C[C@H](N(C)C)[C@H]2O)[C@](C)(OC)C[C@@H](C)C(=O)[C@H](C)[C@@H](O)[C@]1(C)O,,tolC,,2 µg/mL
CC(C)C[C@@H]1NC(=O)[C@@H](CC(C)C)NC(=O)[C@H](CCN)NC(=O)[C@@H](NC(=O)[C@H](CCN)NC(=O)[C@@H](NC(=O)CCCCN=[N+]=[N-])[C@@H](C)O)CCNC(=O)[C@H]([C@@H](C)O)NC(=O)[C@H](CCN)NC(=O)[C@H](CCN)NC1=O,broth microdilution,"ATCC 35218, cation-adjusted Mueller-Hinton broth","18 to 20 h, 37 °C, 0.002% polysorbate 80",8 µg/mL
COc1ccc2ccc(O)c(/C=N/[C@H]3CCCC[C@H]3/N=C/c3c(O)cccc3OC)c2c1,"microbial growth, broth dilution",,clinical isolate,> 40 µM
COc1c(NC(=O)c2ccc(NC(=O)[C@H](Cc3c[nH]nn3)NC(=O)c3ccc(NC(=O)/C(C)=C/c4ccc(O)cc4)cc3)cc2)ccc(C(=O)Nc2ccc(C(=O)O)c(O)c2)c1O,broth microdilution,BW25113,,0.031 µg/mL
Cn1nc(CC(=O)O)c(=O)c2c(=O)[nH]c(N)nc21,"microbial growth, broth dilution",BW25113,18 h,> 100 µg/mL
CC[C@H]1OC(=O)[C@H](C)[C@@H](OC(=O)c2ccc(N)cc2)[C@H](C)[C@@H](O[C@@H]2O[C@H](C)C[C@H](N(C)C)[C@H]2O)[C@](C)(OC)C[C@@H](C)C(=O)[C@H](C)[C@@H](O)[C@]1(C)O,,tolC,,32 µg/mL
COc1cc(C(=O)O)ccc1NC(=O)c1ccc(NC(=O)c2ccc(NC(=O)[C@H](Cc3c[nH]nn3)NC(=O)c3ccc(NC(=O)/C(C)=C/c4ccc(O)cc4)cc3)cc2)cc1O,broth microdilution,ciprofloxacin-resistant,,1 µg/mL
CC[C@H](C)[C@H](NC(=O)[C@@H](CCCNC(=N)N)NC(=O)[C@H](CCCNC(=N)N)NC(=O)[C@@H]1CCCN1C(=O)[C@@H]1CCCN1C(=O)[C@H](CCCNC(=N)N)NC(=O)[C@@H]1CCCN1C(=O)[C@H](CCCNC(=N)N)NC(=O)[C@@H]1CCCN1C(=O)[C@H](CC(C)C)NC(=O)[C@H](Cc1ccc(O)cc1)NC(=O)[C@@H]1CCCN1C(=O)[C@@H]1CCCN1C(=O)[C@H](CCCNC(=N)N)NC(=O)[C@H](CC(=O)O)NC(=O)[C@@H](N)C(C)C)C(=O)N[C@@H](Cc1ccc(O)cc1)C(=O)N[C@@H](CC(N)=O)C(=O)N[C@H](CCCNC(=N)N)C(N)=O,broth microdilution,MC4100,"18 h, 37 °C, 25% MHB2",8 µg/mL
CCCCCCn1cc[n+](CCCCCCCCCCOc2cc(OCCCCCCCCCC[n+]3ccn(CCCCCC)c3)cc(OCCCCCCCCCC[n+]3ccn(CCCCCC)c3)c2)c1.[Br-].[Br-].[Br-],,MC4100,,8 µM
CCOc1c(NC(=O)c2ccc(NC(=O)c3ccc(NC(=O)[C@H](Cc4c[nH]nn4)NC(=O)c4ccc(NC(=O)/C(C)=C/c5ccc(O)cc5)cc4)cc3)c(OC)c2O)ccc(C(=O)O)c1O,broth microdilution,ciprofloxacin-resistant,,0.5 µg/mL
NCC(=O)N1CCN(c2cc3c(cc2F)c(=O)c(C(=O)O)cn3C2CC2)CC1,"microbial growth, broth dilution","K12, MG1655",,2.5 µM
CCCCCCCCCCCC(=O)Oc1c(C)c(OC)c2c(/C=C/c3ccccc3)c(CCCCCCCCCC)c(=O)oc2c1C,"microbial growth, broth dilution",ATCC25922,,5000 µg/mL
COc1ccc2ccc(O)c(/C=N/[C@H]3CCCC[C@H]3/N=C/c3ccccc3O)c2c1,"microbial growth, broth dilution",,,> 40 µM
CCC(CC)c1cc(CCN2CCCN(S(=O)(=O)c3ccc(C)cc3)CC2)nc(-c2ccccn2)n1,"microbial growth, broth dilution",ATCC25922,,> 64 µg/mL
O=CCNCCOn1c(=O)n(OCCNCCO)c(=O)n(OCCNCCOn2c(=O)n(OCCNCCO)c(=O)n(OCCNCCO)c2=O)c1=O,"microbial growth, broth dilution",,,2 µg/mL
COc1ccc2ccc(O)c(/C=N/[C@H]3CCCC[C@H]3/N=C/c3cccc(F)c3O)c2c1,"microbial growth, broth dilution",,,> 40 µM
CC[C@H](C)[C@H](NC(=O)[C@@H](CCCNC(=N)N)NC(=O)[C@H](CCCNC(=N)N)NC(=O)[C@@H]1CCCN1C(=O)[C@@H]1CCCN1C(=O)[C@H](CCCNC(=N)N)NC(=O)[C@@H]1CCCN1C(=O)[C@H](CCCNC(=N)N)NC(=O)[C@@H]1CCCN1C(=O)[C@H](CC(C)C)NC(=O)[C@H](Cc1ccc(O)cc1)NC(=O)[C@@H]1CCCN1C(=O)[C@@H]1CCCN1C(=O)[C@H](CCCCN)NC(=O)[C@H](CC(=O)O)NC(=O)[C@@H](N)C(C)C)C(=O)N[C@@H](Cc1ccc(O)cc1)C(=O)N[C@@H](CC(N)=O)C(=O)N[C@H](CCCNC(=N)N)C(N)=O,broth microdilution,ATCC 25922,"18 h, 37 °C, 25% MHB2",8 µg/mL
CC[C@H]1OC(=O)[C@H](C)C(=O)[C@H](C)[C@@H](O[C@@H]2O[C@H](C)C[C@H](N(C)C)[C@H]2O)[C@](C)(OC)C[C@@H](C)C(=O)[C@H](C)[C@H]2N(CCCCn3cnc(-c4cccnc4)c3)C(=O)O[C@]12C,,tolC,,8 µg/mL
CC1(C)[C@H](NC(=O)/C(=N\OCc2cc(=O)c(O)cn2O)c2csc(N)n2)C(=O)N1OS(=O)(=O)O,agar dilution,16-1 ESBL,,2 µg/mL
c1ccc(CN2CCOCCOCCN(CCCCCCCCCCCCCCN3CCOCCOCCN(CCCCCCCCCCCCCCN4CCOCCOCCN(Cc5ccccc5)CCOCCOCC4)CCOCCOCC3)CCOCCOCC2)cc1,,tetracycline-resistant (pBR322),,2 µM
C[C@H](CS)C(=O)Nc1cccc(-c2nn[nH]n2)c1,"broth microdilution, item: meropenem",DH5α pET28-lacUV5 control,"100 µM, added: meropenem",< 0.125 µg/mL
CCn1cc(/C=C/c2ccc3ccccc3[n+]2CC)c2ccccc21,"microbial growth, broth dilution",780,,4 µg/mL
COc1c(NC(=O)c2ccc(NC(=O)[C@H](Cc3c[nH]nn3)NC(=O)c3ccc(NC(=O)/C(C)=C/c4ccc(O)cc4)cc3)cc2)ccc(C(=O)Nc2ccc(C(=O)O)cc2)c1O,broth microdilution,BW25113,,0.125 µg/mL
CC(C)Oc1c(NC(=O)c2ccc(NC(=O)C(CC(N)=O)NC(=O)c3ccc(NC(=O)c4ccc(C#N)cc4)cc3)cc2)ccc(C(=O)Nc2ccc(C(=O)O)cc2)c1O (centres unmarked),,BW25113 WT,,0.025 µg/mL
COc1c(NC(=O)c2ccc(NC(=O)c3ccc(NC(=O)[C@H](CC#N)NC(=O)c4ccc(NC(=O)/C(C)=C/c5ccc(O)cc5)cc4)cc3)c(OC)c2O)ccc(C(=O)O)c1O,broth microdilution,ciprofloxacin-resistant,,0.125 µg/mL
CC[C@H]1OC(=O)[C@H](C)[C@@H](OC(=O)Cc2ccc3c(c2)OCO3)[C@H](C)[C@@H](O[C@@H]2O[C@H](C)C[C@H](N(C)C)[C@H]2O)[C@](C)(OC)C[C@@H](C)C(=O)[C@H](C)[C@@H](O)[C@]1(C)O,,lpxC,,16 µg/mL
CC(C)C[C@@H]1NC(=O)[C@@H](CC(C)C)NC(=O)[C@H](CCN)NC(=O)[C@@H](NC(=O)[C@H](CCN)NC(=O)[C@@H](N)[C@@H](C)O)CCNC(=O)[C@H]([C@@H](C)O)NC(=O)[C@H](CCN)NC(=O)[C@H](CCN)NC1=O,broth microdilution,"ATCC 35218, cation-adjusted Mueller-Hinton broth","18 to 20 h, 37 °C, 0.002% polysorbate 80",> 128 µg/mL
COc1c(NC(=O)c2ccc(NC(=O)c3ccc(NC(=O)[C@H](Cc4c[nH]nn4)NC(=O)c4ccc(NC(=O)/C(C)=C/c5ccc(O)cc5)cc4)cc3)cc2O)ccc(C(=O)O)c1O,broth microdilution,DSM 1116,,0.125 µg/mL
N=C(N)NCCC[C@@H]1NC(=O)[C@H](CCCNC(=N)N)NC(=O)[C@@H](CCCNC(=N)N)NC(=O)[C@H](C(c2ccccc2)c2ccccc2)NC(=O)[C@H](C(c2ccccc2)c2ccccc2)NC(=O)[C@H](C(c2ccccc2)c2ccccc2)NC(=O)[C@H](CCCNC(=N)N)NC1=O,,ATCC 25922,,16 µg/mL
CC1(C)[C@H](NC(=O)/C(=N\OCCN)c2nsc(N)n2)C(=O)N1OS(=O)(=O)O,agar dilution,"16-1, ESBL-producing",,8 µg/mL
CC[C@H]1OC(=O)[C@H](C)[C@@H](OC(=O)Cc2c(F)cccc2F)[C@H](C)[C@@H](O[C@@H]2O[C@H](C)C[C@H](N(C)C)[C@H]2O)[C@](C)(OC)C[C@@H](C)C(=O)[C@H](C)[C@@H](O)[C@]1(C)O,microbial growth,ATCC25922,,> 32 µg/mL
CCCCCCCC[N+](C)(C)CCCCOc1cc(OCCCC[N+](C)(C)CCCCCCCC)cc(OCCCC[N+](C)(C)CCCCCCCC)c1.[Br-].[Br-].[Br-],,MC4100,,2 µM
Cn1nc(CCC#N)c(=O)c2c(=O)[nH]c(N)nc21,"microbial growth, broth dilution",BW25113,18 h,50 µg/mL
COc1c(NC(=O)c2ccc(NC(=O)c3ccc(NC(=O)[C@H](Cc4c[nH]nn4)NC(=O)c4ccc(NC(=O)/C(C)=C/c5ccc(O)cc5)cc4)cc3)cc2)ccc(C(=O)O)c1O,broth microdilution,ciprofloxacin-resistant,,0.5 µg/mL

# For quick reference, copied from above:
SMILES,assay,test system,conditions,MIC
CC(C)Oc1c(NC(=O)c2ccc(NC(=O)C(CC(N)=O)NC(=O)c3ccc(NC(=O)c4ccc(C#N)cc4)cc3)cc2)ccc(C(=O)Nc2ccc(C(=O)O)cc2)c1O (centres unmarked),,BW25113 WT,,0.025 µg/mL
C[C@H](CS)C(=O)Nc1cccc(-c2nn[nH]n2)c1,"broth microdilution, item: meropenem",DH5α pET28-lacUV5 control,"100 µM, added: meropenem",< 0.125 µg/mL
CC[C@H](C)[C@H](NC(=O)[C@@H](CCCNC(=N)N)NC(=O)[C@H](CCCNC(=N)N)NC(=O)[C@@H]1CCCN1C(=O)[C@@H]1CCCN1C(=O)[C@H](CCCNC(=N)N)NC(=O)[C@@H]1CCCN1C(=O)[C@H](CCCNC(=N)N)NC(=O)[C@@H]1CCCN1C(=O)[C@H](CC(C)C)NC(=O)[C@H](Cc1ccc(O)cc1)NC(=O)[C@@H]1CCCN1C(=O)[C@@H]1CCCN1C(=O)[C@H](CCCCN)NC(=O)[C@H](CC(=O)O)NC(=O)[C@@H](N)C(C)C)C(=O)N[C@@H](Cc1ccc(O)cc1)C(=O)N[C@@H](CC(N)=O)C(=O)N[C@H](CCCNC(=N)N)C(N)=O,broth microdilution,ATCC 25922,"18 h, 37 °C, 25% MHB2",8 µg/mL
COc1ccc2ccc(O)c(/C=N/[C@H]3CCCC[C@H]3/N=C/c3ccccc3O)c2c1,"microbial growth, broth dilution",,,> 40 µM
CCn1cc(/C=C/c2ccc3ccccc3[n+]2CC)c2ccccc21,"microbial growth, broth dilution",780,,4 µg/mL
